Results pooled from the literature.
A part holds a random share of what one study measured.

Set 1 — technique: EMSA with sequencing; form: double-stranded DNA, one strand shown; medium: in vitro; concentration: 10 and 20 nM; baseline: negative control set to 0; direction: higher = stronger binding
Target: Hepatocyte nuclear factor 3-alpha (Foxa1, Mus musculus, UniProt P35582, residues 1-468, full length assumed)
UniProt P35582, sequence (whole entry, looked up): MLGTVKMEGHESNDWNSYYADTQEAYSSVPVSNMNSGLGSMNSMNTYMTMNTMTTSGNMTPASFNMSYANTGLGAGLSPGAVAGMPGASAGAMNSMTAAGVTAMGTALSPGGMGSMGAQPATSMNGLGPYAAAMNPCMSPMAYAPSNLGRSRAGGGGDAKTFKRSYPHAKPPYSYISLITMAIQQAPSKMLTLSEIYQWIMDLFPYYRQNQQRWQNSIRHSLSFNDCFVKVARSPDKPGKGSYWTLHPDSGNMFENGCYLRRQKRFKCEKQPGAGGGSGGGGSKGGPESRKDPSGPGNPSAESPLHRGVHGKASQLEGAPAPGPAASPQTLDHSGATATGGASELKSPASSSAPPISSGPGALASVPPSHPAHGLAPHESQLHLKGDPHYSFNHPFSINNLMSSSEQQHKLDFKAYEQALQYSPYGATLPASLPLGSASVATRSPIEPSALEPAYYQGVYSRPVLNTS
Notes: whole designed probe, mean of two concentrations, ends assumed
Under “normalised bound fraction”, `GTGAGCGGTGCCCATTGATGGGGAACCAGCTTTTCATATCTGGCCATCTTAGAGCAGGGGAGATTGAGAAACAGAGAGAGGAAGAACCAGGGAAAGAAGTCTGGCTCCAAGCCCAGTGGGTAATCTTGCTGGCTGCCTTCTCACACAGATTACTTTTCAAAAATGAAAAGGGAGTGTCCAGCTTCGTTTGGAATAAAGATGAGGAAATGACTCTCAGCTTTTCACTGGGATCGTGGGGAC` is recorded as -0.0904 ratio.
`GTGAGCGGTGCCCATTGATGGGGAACATCTTCCCCCTCTTCCTTGCCCCACCAGCTCACCTTCCCGGGTTGTTTACTTTGAGCAAAGTAAACAAAGCCGGCATTCGTTAACCCTCTTCACGCGCATACTGCCAGAGCAAACAGATCTAACATGGTCCTTTGGCGACGCCAGGCTCCGGGAGAGCAAAGCACCGTGTCAGGGCCATGATCCGGGGTGGCCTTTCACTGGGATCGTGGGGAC`: “normalised bound fraction” 0.532 ratio.
`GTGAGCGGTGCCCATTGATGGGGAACATTCTTGGGGGTGCGCTGATTCCAGGCTCTCGCCCCAGCTTTGGGCCCAGGGCAGTGAGCATGTGTAGTTACTTATCTAGGATTGCAACCTGAGTCATCTGTGAAACCAGGAAGTGAACTCGGGGTCCGGCATTGTATGGAAAGTTGGGTGAAATTACTTTTCTCTTAAAGCAAACTTTGATTGACTCTTTAATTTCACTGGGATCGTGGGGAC`: “normalised bound fraction” 0.0126 ratio.
`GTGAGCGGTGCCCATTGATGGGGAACCCACCGCGCCTGGCCGAGAGCTCAGCGTTTTAAAACCTATAGTAGGCTGTTTTTTTCACGTCAATGTCAAATGTTTGTGTCTGTTTTTCAAAGGTAATTTAGAAGTCTGTTGTCTGTTGCAGTCTGAACTCTAGAGTGTAAGATCTGACATATCAAAGGCAAGAGTAAAAAGAGAAGGTGGTGCATGCATGTATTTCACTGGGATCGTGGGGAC`: “normalised bound fraction” -0.0553 ratio.
`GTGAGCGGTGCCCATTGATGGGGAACAAATTGGTAATGACCATATTATCTGCTGGAAGCTTGGGAAGGAAAAGGGAAGTTGATTTGCTGATTTCTTACAATGAGTCAGTGATGTTATTAAAATTACATATGACTAATTTAATTCTCAAAAATGCTGAGAAAATTAGACATTATCTTCATTTAACAGATGGGGAATATGATATGCAGTTACTAATGGCAGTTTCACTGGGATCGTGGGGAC` — result for “normalised bound fraction”: -0.0417 ratio.

Set 2 — technique: protein-binding microarray; form: double-stranded DNA, one strand shown; medium: in vitro; concentration: 940 nM top; notes: 60-bp whole probe; together with: salmon DNA 0.4 mg/ml; baseline: random background probes; direction: higher = stronger binding; constant ends, left off below: GCCTAGCAC … GTCTTGATTCGCTTGACGCTGCTG
Target: Interferon regulatory factor 5, full length, phosphomimetic (IRF5, Homo sapiens, UniProt Q13568-2, residues 1-514, S451D/S453D/S456D/S462D)
For `GACGGTATGCTTTTCCTGACGTGCTAG`, “fitted relative affinity” read -0.0431 z-score.
For `TTAGATATCAGTCTCAATTAGTGCTAG`, “fitted relative affinity” read 0.775 z-score.
`GGCTGTTTGGTCCTGATCCTGTGCTAG` — result for “fitted relative affinity”: -0.176 z-score.
`GACGATCTCAGACAGGAGACGTGCTAG` — result for “fitted relative affinity”: -0.253 z-score.
Under “fitted relative affinity”, `TTAGATATCGGGTTTGGATTAGTGCTA` is recorded as 0.166 z-score.
For `TCATGTTTGGTTCTGATACTGTGCTAG`, “fitted relative affinity” read 0.801 z-score.
`AATTTTTACTTTCTGAATGCGTGCTAG` — result for “fitted relative affinity”: 1.94 z-score.
`GATGATTTCAGACTGGAGACGTGCTAG` — result for “fitted relative affinity”: -0.576 z-score.
`TTAGGTATCGACTTTCGGCTAGTGCTA` — result for “fitted relative affinity”: 5.26 z-score.
For `TCAAAATGATTGGTTGAACTGTGCTAG`, “fitted relative affinity” read -0.211 z-score.
Under “fitted relative affinity”, `TCAATTGTGCAATCTTAAACTGTGCTA` is recorded as -0.271 z-score.
`TTAAGTTTCGACTTTCGGTTAGTGCTA`: “fitted relative affinity” 9.13 z-score.
Under “fitted relative affinity”, `TTAGATTTCAGTCTCGGTTAGTGCTAG` is recorded as 4.57 z-score.
For `AAACTTACCTCACTCGTTAAGTGCTAG`, “fitted relative affinity” read 0.609 z-score.

Set 3 — technique: protein binding microarray; form: double-stranded DNA, one strand shown; medium: in vitro; concentration: not given; baseline: not given; direction: higher = stronger binding
Target: Histone acetyltransferase KAT6A, winged helix 2, GST fusion (KAT6A, Homo sapiens, UniProt Q92794, residues 85-181)
Notes: 8-mer, flanks averaged, mean of 2 arrays, mostly near background
Residues (chain): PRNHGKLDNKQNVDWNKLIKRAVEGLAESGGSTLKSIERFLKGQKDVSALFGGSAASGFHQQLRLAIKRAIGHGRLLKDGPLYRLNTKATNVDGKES
The E-score of `ATATTTGA` is reported as 0.00656.
For `AGGTTATC`, the E-score was -0.154.
With `GCATTAGA` the E-score was -0.00407.
The E-score of `CCACGGAA` is reported as 0.116.
The E-score of `CCGCCAGA` is reported as 0.229.
With `TACGACTA` the E-score was -0.166.
`AGTTCTGG` has an E-score of 0.126.
With `GGTCACAC` the E-score was -0.0266.
For `ATCATGCA`, the E-score was -0.169.
For `GGAAGTCC`, the E-score was -0.106.
The E-score of `CATCTGGC` is reported as 0.205.
The E-score of `AGCCAGAC` is reported as 0.0187.
With `CATAGGGC` the E-score was -0.154.
`AATAGTCG` has an E-score of -0.0305.
For `AGTCGAAA`, the E-score was 0.0636.
With `CAACGGAG` the E-score was 0.103.
`AGATACAG` gave an E-score of -0.00734.
The E-score of `ATGAACAA` is reported as -0.108.
For `CTAAGTAC`, the E-score was -0.0771.
`ACCCAGTC` has an E-score of 0.0826.
`ACGCAGAT` has an E-score of 0.0297.
For `AGTAGCAG`, the E-score was -0.0389.
`AGACTAAC` has an E-score of -0.273.
`GCTCGATA` has an E-score of 0.158.
For `CCCTACGG`, the E-score was 0.0713.

Set 4 — technique: universal PBM; form: double-stranded DNA, one strand shown; medium: in vitro; concentration: 600 nM; direction: higher = stronger binding
Target: Sal-like protein 4, full length isoform A (SALL4, Homo sapiens, UniProt Q9UJQ4, residues 1-1053)
UniProt Q9UJQ4, sequence (whole entry, looked up): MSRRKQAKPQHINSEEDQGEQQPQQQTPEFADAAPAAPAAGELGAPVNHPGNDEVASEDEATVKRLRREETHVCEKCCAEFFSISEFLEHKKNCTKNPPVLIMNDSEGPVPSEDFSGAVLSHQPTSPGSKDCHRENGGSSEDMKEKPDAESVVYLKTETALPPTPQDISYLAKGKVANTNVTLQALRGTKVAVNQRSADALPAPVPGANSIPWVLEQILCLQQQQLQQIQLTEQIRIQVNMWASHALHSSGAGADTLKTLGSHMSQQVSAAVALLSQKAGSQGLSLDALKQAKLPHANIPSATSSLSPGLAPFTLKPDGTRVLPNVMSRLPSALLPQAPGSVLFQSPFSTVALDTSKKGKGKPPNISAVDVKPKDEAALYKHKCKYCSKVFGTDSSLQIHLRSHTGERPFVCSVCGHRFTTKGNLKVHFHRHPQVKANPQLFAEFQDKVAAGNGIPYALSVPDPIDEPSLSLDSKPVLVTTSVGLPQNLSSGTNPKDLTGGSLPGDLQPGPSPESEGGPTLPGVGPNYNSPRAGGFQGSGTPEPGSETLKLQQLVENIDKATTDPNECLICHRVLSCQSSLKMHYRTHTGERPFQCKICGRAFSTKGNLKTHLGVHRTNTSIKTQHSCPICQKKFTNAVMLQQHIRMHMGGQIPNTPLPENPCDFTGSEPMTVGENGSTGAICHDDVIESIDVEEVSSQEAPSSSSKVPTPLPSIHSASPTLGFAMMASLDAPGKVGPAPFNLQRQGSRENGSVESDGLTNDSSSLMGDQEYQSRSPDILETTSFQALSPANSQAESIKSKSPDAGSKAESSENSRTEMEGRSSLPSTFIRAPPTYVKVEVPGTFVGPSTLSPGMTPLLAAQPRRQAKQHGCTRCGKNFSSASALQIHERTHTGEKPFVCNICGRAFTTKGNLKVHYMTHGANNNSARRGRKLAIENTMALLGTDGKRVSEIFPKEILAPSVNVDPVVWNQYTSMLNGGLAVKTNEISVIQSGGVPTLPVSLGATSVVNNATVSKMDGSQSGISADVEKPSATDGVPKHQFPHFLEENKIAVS
Notes: 8-mer, flanks averaged, mean of replicates
With `ATGTCACA` the E-score was 0.197.
`ACCACCGC` has an E-score of -0.273.
`ACACTATA` gave an E-score of 0.305.
With `CGCATGAG` the E-score was -0.0543.
`ATTGATCA` gave an E-score of 0.217.
For `CACGGCGG`, the E-score was -0.234.
With `AGCCCTGG` the E-score was -0.295.
`ATGGGGCA` has an E-score of -0.205.
`AAAAATGT` has an E-score of 0.321.
With `CCGTTTAG` the E-score was -0.116.
The E-score of `AAGTGAAA` is reported as 0.205.
With `AAGGTACC` the E-score was -0.216.
For `AGAAATCT`, the E-score was 0.205.
`AGTCTATG` gave an E-score of 0.0323.
For `CAATGAAG`, the E-score was -0.00713.
`AAATTGTG` has an E-score of 0.206.
For `AATCCGCC`, the E-score was -0.197.
For `AGTCACAT`, the E-score was 0.15.

Set 5 — technique: protein-binding microarray; form: double-stranded DNA, one strand shown; medium: in vitro; concentration: 0.8 µM; notes: whole 60-bp probe, no competitor; direction: higher = stronger binding
Target: Centromere-binding protein 1, full length, N-terminal tag (CBF1, Saccharomyces cerevisiae, UniProt P17106, residues 1-351)
UniProt P17106, sequence (whole entry, looked up): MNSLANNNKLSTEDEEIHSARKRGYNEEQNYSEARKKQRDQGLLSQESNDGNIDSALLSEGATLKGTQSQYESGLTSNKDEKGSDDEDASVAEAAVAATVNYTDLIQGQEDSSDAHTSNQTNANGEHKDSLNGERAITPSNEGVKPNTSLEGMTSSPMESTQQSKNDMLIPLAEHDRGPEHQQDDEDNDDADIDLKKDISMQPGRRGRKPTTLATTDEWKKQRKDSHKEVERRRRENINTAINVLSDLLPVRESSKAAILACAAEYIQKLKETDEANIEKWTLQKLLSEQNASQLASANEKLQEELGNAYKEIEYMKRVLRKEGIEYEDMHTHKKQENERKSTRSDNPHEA
For `CTATTTTTTCAAAGGCACGCGTGTCCTTTTTTGTTCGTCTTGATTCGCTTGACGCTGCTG`, the fluorescence intensity was 807 a.u.
`TGTACGAAGCTATGTGGTGTGTGTATAGTAGTTAGGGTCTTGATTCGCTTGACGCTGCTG` gave a fluorescence intensity of 564 a.u.
`CTAGTAAACAATTTGCTCGTGGTTTTTTTATCATTCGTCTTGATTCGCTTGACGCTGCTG` has a fluorescence intensity of 617 a.u.
For `CTAATGGGCACTTGTCACATGTTAATGAAGTCATTCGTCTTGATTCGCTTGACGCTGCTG`, the fluorescence intensity was 2600 a.u.
`GAAGTTTCCCGTAGTGATGACGTACGTGTATAGTAGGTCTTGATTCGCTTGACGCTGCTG` has a fluorescence intensity of 526 a.u.
For `CCTAACTACTATAATTTCATGACATAGCTTCGTACAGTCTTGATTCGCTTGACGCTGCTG`, the fluorescence intensity was 548 a.u.
`CTAAATATATCAAATAACGTGAAATAATGTACCTTCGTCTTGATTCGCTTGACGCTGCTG` gave a fluorescence intensity of 633 a.u.
`GAAGCTAATTAGGTGATCATGAAAAAATGAAAATAGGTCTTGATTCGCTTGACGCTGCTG` has a fluorescence intensity of 613 a.u.
With `CCTAACTACTATAGTCATATGATATAGCTTCGTACAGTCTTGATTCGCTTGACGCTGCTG` the fluorescence intensity was 1080 a.u.
For `GAATAAAAGTTCAAACACGTTTTTAAGTATTGTTAGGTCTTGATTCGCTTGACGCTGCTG`, the fluorescence intensity was 605 a.u.
`CCTAACTACTATAACCACGTTAAATAGCTTCGTACAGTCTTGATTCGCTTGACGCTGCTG` gave a fluorescence intensity of 523 a.u.
With `GAATTTAAGCGCTCTCGTGAGAGAATATCACTGTAGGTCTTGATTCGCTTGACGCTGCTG` the fluorescence intensity was 672 a.u.
With `GAAGATTTTTACAACGACACCACCACCATGTATTAGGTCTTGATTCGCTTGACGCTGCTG` the fluorescence intensity was 555 a.u.
For `GAATAACAGGCGTGTCACCAATGATTAATGGCGTAGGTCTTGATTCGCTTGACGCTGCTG`, the fluorescence intensity was 563 a.u.
With `GAAGTAATACTGGATCAGGAGGGTATGATAATGTAGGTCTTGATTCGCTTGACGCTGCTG` the fluorescence intensity was 682 a.u.
With `GAACATCAAGATGATTTCGTGACACATACTCTTTAGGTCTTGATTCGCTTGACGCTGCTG` the fluorescence intensity was 554 a.u.
With `CTAAGAATAGACATCCTGGTGACGCATATCGACTTCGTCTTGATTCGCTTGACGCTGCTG` the fluorescence intensity was 534 a.u.
For `CTATTTTCTCAAGGTGACCTGTTGTATCACGTTTTCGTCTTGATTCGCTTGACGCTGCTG`, the fluorescence intensity was 1170 a.u.
`CTATAGTACCGTCCGCACATGATGTCATTTCCCTTCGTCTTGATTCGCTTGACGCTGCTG` gave a fluorescence intensity of 979 a.u.

A few entries again (set 2):
For `TTAGATATCAGTCTCAATTAGTGCTAG`, “fitted relative affinity” read 0.775 z-score.
`GGCTGTTTGGTCCTGATCCTGTGCTAG` — result for “fitted relative affinity”: -0.176 z-score.
`GACGATCTCAGACAGGAGACGTGCTAG` — result for “fitted relative affinity”: -0.253 z-score.
Under “fitted relative affinity”, `TTAGATATCGGGTTTGGATTAGTGCTA` is recorded as 0.166 z-score.
For `TCATGTTTGGTTCTGATACTGTGCTAG`, “fitted relative affinity” read 0.801 z-score.
`AATTTTTACTTTCTGAATGCGTGCTAG` — result for “fitted relative affinity”: 1.94 z-score.
`GATGATTTCAGACTGGAGACGTGCTAG` — result for “fitted relative affinity”: -0.576 z-score.
`TTAGGTATCGACTTTCGGCTAGTGCTA` — result for “fitted relative affinity”: 5.26 z-score.
For `TCAAAATGATTGGTTGAACTGTGCTAG`, “fitted relative affinity” read -0.211 z-score.
Under “fitted relative affinity”, `TCAATTGTGCAATCTTAAACTGTGCTA` is recorded as -0.271 z-score.
